Measurements from different studies.
Compare with care: the assays were run in different laboratories. Several values in a cell are separate wells, animals, samples, runs or records. Numbers after ± are the reported error.
B1: UPF2 761-1227 (Homo sapiens, UniProt Q9HAU5); sequence looked up; chain EKTVKKKRPPLQEYVRKLLYKDLSKVTTEKVLRQMRKLPWQDQEVKDYVICCMINIWNVKYNSIHCVANLLAGLVLYQEDVGIHVVDGVLEDIRLGMEVNQPKFNQRRISSAKFLGELYNYRMVESAVIFRTLYSFTSFGVNPDGSPSSLDPPEHLFRIRLVCTILDTCGQYFDRGSSKRKLDCFLVYFQRYVWWKKSLEVWTKDHPFPIDIDYMISDTLELLRPKIKLCNSLEESIRQVQDLEREFLIKLGLVNDKDSKDSMTEGENLEEDEEEEEGGAETEEQSGNESEVNEPEEEEGSDNDDDEGEEEEEENTDYLTDSNKENETDEENTEVMIKGGGLKHVPCVEDEDFIQALDKMMLENLQQRSGESVKVHQLDVAIPLHLKSQLRKGPPLGGGEGEAESADTMPFVMLTRKGNKQQFKILNVPMSSQLAANHWNQQQAEQEERMRMKKLTLDINERQEQED
B2: ADRM1 265-388 (Homo sapiens, UniProt Q16186); chain SDLQSILATMNVPAGPAGGQQVDLASVLTPEIMAPILANADVQERLLPYLPSGESLPQTADEIQNTLTSPQFQQALGMFSAALASGQLGPLMCQFGLPAEAVEAANKGDVEAFAKAMQNNAKPE
B3: VCL 1-252 (Homo sapiens, UniProt P18206); sequence looked up; chain MPVFHTRTIESILEPVAQQISHLVIMHEEGEVDGKAIPDLTAPVAAVQAAVSNLVRVGKETVQTTEDQILKRDMPPAFIKVENACTKLVQAAQMLQSDPYSVPARDYLIDGSRGILSGTSDLLLTFDEAEVRKIIRVCKGILEYLTVAEVVETMEDLVTYTKNLGPGMTKMAKMIDERQQELTHQEHRVMLVNSMNTVKELLPVLISAMKIFVTTKNSKNQGIEEALKNRNFTVEKMSAEINEIIRVLQLTS
B4: Pigr 19-135 (Mus musculus, UniProt O70570); chain KSPIFGPQEVSSIEGDSVSITCYYPDTSVNRHTRKYWCRQGASGMCTTLISSNGYLSKEYSGRANLINFPENNTFVINIEQLTQDDTGSYKCGLGTSNRGLSFDVSLEVSQVPELPS
B5: WWP2 C506A/C822S/C802S/C750S/C666S/C588S/C577S (Homo sapiens, UniProt O00308); N-terminal Cy5 label; sequence looked up; chain MASASSSRAGVALPFEKSQLTLKVVSAKPKVHNRQPRINSYVEVAVDGLPSETKKTGKRIGSSELLWNEIIILNVTAQSHLDLKVWSCHTLRNELLGTASVNLSNVLKNNGGKMENMQLTLNLQTENKGSVVSGGELTIFLDGPTVDLGNVPNGSALTDGSQLPSRDSSGTAVAPENRHQPPSTNCFGGRSRTHRHSGASARTTPATGEQSPGARSRHRQPVKNSGHSGLANGTVNDEPTTATDPEEPSVVGVTSPPAAPLSVTPNPNTTSLPAPATPAEGEEPSTSGTQQLPAAAQAPDALPAGWEQRELPNGRVYYVDHNTKTTTWERPLPPGWEKRTDPRGRFYYVDHNTRTTTWQRPTAEYVRNYEQWQSQRNQLQGAMQHFSQRFLYQSSSASTDHDPLGPLPPGWEKRQDNGRVYYVNHNTRTTQWEDPRTQGMIQEPALPPGWEMKYTSEGVRYFVDHNTRTTTFKDPRPGFESGTKQGSPGAYDRSFRWKYHQFRFLAHSNALPSHVKISVSRQTLFEDSFQQIMNMKPYDLRRRLYIIMRGEEGLDYGGIAREWFFLLSHEVLNPMYSLFEYAGKNNYSLQINPASSINPDHLTYFRFIGRFIAMALYHGKFIDTGFTLPFYKRMLNKRPTLKDLESIDPEFYNSIVWIKENNLEESGLELYFIQDMEILGKVTTHELKEGGESIRVTEENKEEYIMLLTDWRFTRGVEEQTKAFLDGFNEVAPLEWLRYFDEKELELMLSGMQEIDMSDWQKSTIYRHYTKNSKQIQWFWQVVKEMDNEKRIRLLQFVTGTSRLPVGGFAELIGSNGPQKFSIDKVGKETWLPRSHTCFNRLDLPPYKSYEQLREKLLYAIEETEGFGQE
B6: RPRD1A (Homo sapiens, UniProt Q96P16); chain MSAFSEAALEKKLSELSNSQQSVQTLSLWLIHHRKHSRPIVTVWERELRKAKPNRKLTFLYLANDVIQNSKRKGPEFTKDFAPVIVEAFKHVSSETDESCKKHLGRVLSIWEERSVYENDVLEQLKQALYGDKKPRKRTYEQIKVDENENCSSLGSPSEPPQTLDLVRALQDLENAASGDAAVHQRIASLPVEVQEVSLLDKITDKESGERLSKMVEDACMLLADYNGRLAAEIDDRKQLTRMLADFLRCQKEALAEKEHKLEEYKRKLARVSLVRKELRSRIQSLPDLSRLPNVTGSHMHLPFAGDIYSED
B7: PVRIG/Fc Fc fusion (Homo sapiens); chain TPEVWVQVRMEATELSSFTIRCGFLGSGSISLVTVSWGGPNGAGGTTLAVLHPERGIRQWAPARQARWETQSSISLILEGSGASSPCANTTFCCKFASFPEGSWEACGSLPPSSDPGLSAPPTPAPILRADL
Sequence of UniProt P26231 (whole entry, looked up): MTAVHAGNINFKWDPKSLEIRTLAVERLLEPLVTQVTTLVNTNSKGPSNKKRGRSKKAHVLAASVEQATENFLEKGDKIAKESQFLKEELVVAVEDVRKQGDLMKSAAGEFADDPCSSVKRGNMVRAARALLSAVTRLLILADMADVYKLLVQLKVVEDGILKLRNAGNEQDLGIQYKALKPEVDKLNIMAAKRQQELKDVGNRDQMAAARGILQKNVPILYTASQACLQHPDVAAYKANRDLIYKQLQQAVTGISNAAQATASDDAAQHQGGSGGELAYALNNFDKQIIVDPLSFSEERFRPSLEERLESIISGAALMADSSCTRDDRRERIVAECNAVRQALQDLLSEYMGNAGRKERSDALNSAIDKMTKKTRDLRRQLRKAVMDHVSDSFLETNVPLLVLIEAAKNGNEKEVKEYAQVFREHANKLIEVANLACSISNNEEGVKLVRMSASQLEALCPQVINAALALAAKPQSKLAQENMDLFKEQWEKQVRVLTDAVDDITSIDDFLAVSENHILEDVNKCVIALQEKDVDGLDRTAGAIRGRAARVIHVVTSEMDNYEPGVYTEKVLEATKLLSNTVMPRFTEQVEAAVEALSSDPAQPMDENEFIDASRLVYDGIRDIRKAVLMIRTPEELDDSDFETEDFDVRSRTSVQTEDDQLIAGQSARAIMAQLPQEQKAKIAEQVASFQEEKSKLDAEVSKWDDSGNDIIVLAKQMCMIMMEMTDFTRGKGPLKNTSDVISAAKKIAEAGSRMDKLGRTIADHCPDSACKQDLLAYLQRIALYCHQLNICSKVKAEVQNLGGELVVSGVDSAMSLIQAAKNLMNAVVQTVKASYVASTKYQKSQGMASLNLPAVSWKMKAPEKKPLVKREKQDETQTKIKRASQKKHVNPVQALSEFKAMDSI
Sequence of UniProt Q23985 (whole entry, looked up): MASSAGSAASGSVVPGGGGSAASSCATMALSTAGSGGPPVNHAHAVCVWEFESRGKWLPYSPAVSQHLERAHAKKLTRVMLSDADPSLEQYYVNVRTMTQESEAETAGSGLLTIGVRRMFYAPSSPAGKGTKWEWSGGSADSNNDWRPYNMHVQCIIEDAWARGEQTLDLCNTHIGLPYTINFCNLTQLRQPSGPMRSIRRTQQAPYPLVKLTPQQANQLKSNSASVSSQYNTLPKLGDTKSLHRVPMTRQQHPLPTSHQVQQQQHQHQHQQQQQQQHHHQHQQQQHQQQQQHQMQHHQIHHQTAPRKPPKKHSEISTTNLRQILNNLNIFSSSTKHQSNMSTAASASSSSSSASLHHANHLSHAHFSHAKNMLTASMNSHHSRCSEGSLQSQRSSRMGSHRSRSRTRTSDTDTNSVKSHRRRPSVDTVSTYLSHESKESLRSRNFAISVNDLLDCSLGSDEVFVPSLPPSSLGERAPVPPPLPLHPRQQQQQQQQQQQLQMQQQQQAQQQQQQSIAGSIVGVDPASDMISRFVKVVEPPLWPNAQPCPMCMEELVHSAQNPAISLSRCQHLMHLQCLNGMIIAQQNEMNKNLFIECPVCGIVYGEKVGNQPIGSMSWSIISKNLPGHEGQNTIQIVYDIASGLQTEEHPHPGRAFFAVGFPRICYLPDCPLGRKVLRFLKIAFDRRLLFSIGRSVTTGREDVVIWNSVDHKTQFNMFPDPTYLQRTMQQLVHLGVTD
Sequence of UniProt Q06330 (whole entry, looked up): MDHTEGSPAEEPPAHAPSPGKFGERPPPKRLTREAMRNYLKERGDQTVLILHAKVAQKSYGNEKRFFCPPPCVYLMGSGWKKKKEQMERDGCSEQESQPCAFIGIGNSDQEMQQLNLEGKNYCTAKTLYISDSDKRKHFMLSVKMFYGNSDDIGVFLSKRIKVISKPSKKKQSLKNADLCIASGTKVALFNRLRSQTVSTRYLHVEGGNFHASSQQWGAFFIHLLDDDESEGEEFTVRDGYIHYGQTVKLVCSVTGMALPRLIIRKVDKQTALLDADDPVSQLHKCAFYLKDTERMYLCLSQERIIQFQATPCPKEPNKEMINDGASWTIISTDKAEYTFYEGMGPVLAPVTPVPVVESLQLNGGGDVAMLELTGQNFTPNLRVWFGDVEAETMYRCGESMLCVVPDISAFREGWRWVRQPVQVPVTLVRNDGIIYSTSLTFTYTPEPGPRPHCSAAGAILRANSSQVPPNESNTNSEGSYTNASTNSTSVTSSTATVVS
Sequence of UniProt Q8IXW5 (whole entry, looked up): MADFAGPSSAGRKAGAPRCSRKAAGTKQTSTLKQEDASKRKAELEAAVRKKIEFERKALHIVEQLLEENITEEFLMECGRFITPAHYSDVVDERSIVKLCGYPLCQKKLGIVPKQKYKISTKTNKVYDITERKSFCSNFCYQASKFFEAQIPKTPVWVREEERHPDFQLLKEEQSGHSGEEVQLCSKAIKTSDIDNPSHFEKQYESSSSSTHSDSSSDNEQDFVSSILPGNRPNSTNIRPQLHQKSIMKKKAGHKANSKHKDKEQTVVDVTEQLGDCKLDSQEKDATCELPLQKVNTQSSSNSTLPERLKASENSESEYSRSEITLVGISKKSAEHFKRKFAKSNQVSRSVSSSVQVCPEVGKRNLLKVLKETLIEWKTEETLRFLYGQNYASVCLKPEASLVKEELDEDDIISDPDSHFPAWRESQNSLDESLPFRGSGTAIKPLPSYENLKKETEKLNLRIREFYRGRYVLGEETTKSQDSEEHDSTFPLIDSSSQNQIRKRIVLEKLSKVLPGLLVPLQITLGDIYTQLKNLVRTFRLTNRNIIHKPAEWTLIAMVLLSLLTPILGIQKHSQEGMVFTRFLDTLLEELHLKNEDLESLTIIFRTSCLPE
Sequence of UniProt Q92692 (whole entry, looked up): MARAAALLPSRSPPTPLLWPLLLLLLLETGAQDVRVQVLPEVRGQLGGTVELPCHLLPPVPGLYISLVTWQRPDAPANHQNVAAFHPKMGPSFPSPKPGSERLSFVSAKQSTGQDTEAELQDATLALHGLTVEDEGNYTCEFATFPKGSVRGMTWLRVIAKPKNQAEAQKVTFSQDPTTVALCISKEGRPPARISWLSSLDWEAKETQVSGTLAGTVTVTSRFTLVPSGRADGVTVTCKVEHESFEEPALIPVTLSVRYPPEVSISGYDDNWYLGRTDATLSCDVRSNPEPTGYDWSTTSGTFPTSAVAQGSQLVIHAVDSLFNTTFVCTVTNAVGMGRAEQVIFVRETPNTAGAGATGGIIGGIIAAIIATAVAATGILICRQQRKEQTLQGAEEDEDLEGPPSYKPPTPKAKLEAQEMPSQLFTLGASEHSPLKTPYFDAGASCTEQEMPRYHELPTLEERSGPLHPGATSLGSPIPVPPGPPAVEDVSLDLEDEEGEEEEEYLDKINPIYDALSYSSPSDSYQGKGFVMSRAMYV
Sequence of UniProt Q9BZI7 (whole entry, looked up): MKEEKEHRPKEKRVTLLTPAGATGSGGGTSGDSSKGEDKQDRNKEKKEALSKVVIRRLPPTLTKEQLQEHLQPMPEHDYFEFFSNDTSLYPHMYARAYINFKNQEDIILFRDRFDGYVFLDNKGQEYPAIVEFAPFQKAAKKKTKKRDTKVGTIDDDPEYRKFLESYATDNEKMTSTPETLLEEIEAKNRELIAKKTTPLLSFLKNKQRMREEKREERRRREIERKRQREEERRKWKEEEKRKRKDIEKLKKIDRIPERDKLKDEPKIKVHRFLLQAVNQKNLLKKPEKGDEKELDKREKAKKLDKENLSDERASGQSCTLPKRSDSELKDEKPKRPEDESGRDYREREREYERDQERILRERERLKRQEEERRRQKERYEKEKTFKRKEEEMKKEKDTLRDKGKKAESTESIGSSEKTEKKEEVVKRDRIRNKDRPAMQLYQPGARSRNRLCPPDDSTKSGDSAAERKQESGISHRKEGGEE
Sequence of UniProt Q9WV60 (whole entry, looked up): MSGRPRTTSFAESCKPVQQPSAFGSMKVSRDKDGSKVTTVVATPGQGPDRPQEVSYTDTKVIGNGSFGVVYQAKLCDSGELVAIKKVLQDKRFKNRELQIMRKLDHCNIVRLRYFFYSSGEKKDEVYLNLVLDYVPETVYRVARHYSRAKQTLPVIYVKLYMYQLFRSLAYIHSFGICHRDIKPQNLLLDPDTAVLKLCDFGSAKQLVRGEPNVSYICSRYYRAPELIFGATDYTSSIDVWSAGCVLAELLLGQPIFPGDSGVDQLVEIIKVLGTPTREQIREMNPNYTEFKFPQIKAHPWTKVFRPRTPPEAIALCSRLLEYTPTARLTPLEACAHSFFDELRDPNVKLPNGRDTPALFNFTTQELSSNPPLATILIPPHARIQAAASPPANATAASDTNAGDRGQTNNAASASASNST
Sequence of UniProt Q8RWU7 (whole entry, looked up): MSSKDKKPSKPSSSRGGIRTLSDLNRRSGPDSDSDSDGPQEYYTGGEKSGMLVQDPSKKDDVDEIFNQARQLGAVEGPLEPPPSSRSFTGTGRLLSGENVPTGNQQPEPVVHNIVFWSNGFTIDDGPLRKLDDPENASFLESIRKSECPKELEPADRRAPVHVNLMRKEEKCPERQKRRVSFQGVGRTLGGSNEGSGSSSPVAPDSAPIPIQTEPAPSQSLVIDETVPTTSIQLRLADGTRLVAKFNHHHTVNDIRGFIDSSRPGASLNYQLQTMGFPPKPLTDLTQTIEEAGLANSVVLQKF
Sequence of UniProt Q5BJF2 (whole entry, looked up): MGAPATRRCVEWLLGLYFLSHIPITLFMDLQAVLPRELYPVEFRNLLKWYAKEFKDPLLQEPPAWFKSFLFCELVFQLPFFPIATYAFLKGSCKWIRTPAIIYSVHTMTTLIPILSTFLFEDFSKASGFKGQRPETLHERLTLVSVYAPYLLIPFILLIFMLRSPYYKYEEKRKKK
Sequence of UniProt P52803 (whole entry, looked up): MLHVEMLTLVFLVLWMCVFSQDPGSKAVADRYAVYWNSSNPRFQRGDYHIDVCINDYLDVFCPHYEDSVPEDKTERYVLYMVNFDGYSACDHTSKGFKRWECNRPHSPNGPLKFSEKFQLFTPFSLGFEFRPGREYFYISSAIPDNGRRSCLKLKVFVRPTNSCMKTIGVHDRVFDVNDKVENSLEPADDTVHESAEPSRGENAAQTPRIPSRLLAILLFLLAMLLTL

| Molecule | partner | method | form | cells | temperature | setting | Kd |
| --- | --- | --- | --- | --- | --- | --- | --- |
| GEVAKAAKVK (IL1RAP 339-348 (Homo sapiens); acetylated N-terminus/C-terminal amide) | IL1RL1/IL33 ST2 , IL-33 19-328 | SPR | peptide |  |  |  | 47 µM |
| B1 (UPF2 761-1227) | UPF3B (Homo sapiens, UniProt Q9BZI7) | BLI |  |  |  |  | 0.0399 µM |
| WGSGGVEPQKFAEEPIHRLEAVQRTREAEEKLEERLKRVRMEEEGEDGDPSSGPPGPC (AXIN1 383-435 L392P (Homo sapiens); HiLyte488 label) | Gsk3b 26-383 (Mus musculus, UniProt Q9WV60) | fluorescence polarisation |  |  |  |  | > 5 µM |
| B2 (ADRM1 265-388) | UCHL5 E283A (Homo sapiens) | ITC |  |  |  |  | 0.0051 µM |
| B3 (VCL 1-252) | Ctnna1 (Mus musculus, UniProt P26231) | BLI |  |  |  |  | 1.7 µM and 1.8 µM |
| B4 (Pigr 19-135) | Igha/Jchain CH2-CH3 with J chain del136-137 (Mus musculus) | SPR |  |  |  |  | 1.43 µM |
| SIQEHMAIDVCPGPIRPIKQISDYFPRFPRGLPPTAAPRAPAPPDAPA (Doc2b 13-60 (Mus musculus)) | Unc13a MUN domain del1453-1531 (Rattus norvegicus) | ITC |  |  |  |  | 0.23 ± 0.03 µM |
| ASCC3 C-degron | APPBP2/ELOB/ELOC (Homo sapiens) | ITC |  |  |  |  | 1.7 ± 0.5 µM |
| EPHA2 fragment, auto-phosphorylated (Homo sapiens) | EFNA5 (Homo sapiens, UniProt P52803) | BLI |  |  |  | apparent | 0.36 µM |
| GCVRLHESCLGQQVPCCDPAATCYCSGRGDNDLVCYCR (designed binder) | ITGA2B/ITGB3 K562 cells | flow cytometry | designed binder | U87MG |  |  | > 0.1 µM |
| Notch ankyrin domain D81A/R107A (Drosophila) | dx (Drosophila melanogaster, UniProt Q23985) | AUC |  |  |  |  | 7.88 µM |
| B5 | UBE2L3 (Homo sapiens, UniProt P68036) | MST |  |  |  |  | 322 ± 24 µM |
| B6 (RPRD1A) | RPAP2 (Homo sapiens, UniProt Q8IXW5) | ITC |  |  | 25 °C |  | 447 µM |
| YLPTITGVGHLWHPLC (engineered peptide) | VPS35/VPS26A/VPS29 retromer complex (Homo sapiens) | SPR | peptide |  |  |  | 0.0052 µM |
| TERLVLRLNRKKKKVSWKDGTVDNE (INH3 27-51 (Arabidopsis thaliana, UniProt Q8S8F7)) | PUX4 (Arabidopsis thaliana, UniProt Q8RWU7) | ITC | peptide |  |  |  | 70.4 ± 14.9 µM |
| SDLACRLLGQSMDESGLPQLTSYDCEVNAPIQGSGSRNLLQGEELLRALDQVN (HIF-1α CTAD 776-826 GS insertion (Homo sapiens, UniProt Q16665); sequence looked up) | Crebbp 340-439 (Mus musculus, UniProt P45481) | fluorescence polarisation |  |  |  |  | 0.07 µM |
| HEKHHSHREFPFYGDYGSNYLYDN (HTN1 34-57 (Homo sapiens, UniProt P15515); sequence looked up) | TMEM97 (Homo sapiens, UniProt Q5BJF2) | SPR | peptide |  |  |  | > 50 µM |
| PCSK9 (Homo sapiens, UniProt Q8NBP7) | alirocumab IgG, PBS-stressed 28 d, Asn deamidation, heavy chain CDR1 Asn30 and Fc | SPR |  |  |  |  | 0.00065 µM |
| KLLMIIHDRREFAKFEKEKMNAKWDTGENPIYKSPINNFKNPNYGRKAGL (ITGB1 752-801 Q778G (Homo sapiens, UniProt P05556-5); sequence looked up) | Tln2 312-408 (Mus musculus, UniProt Q71LX4) | NMR titration |  |  |  |  | 97 µM |
| FKESALAKQSLYLAFDPLLRDS (TACC3 549-570 R555A/K562A (Homo sapiens, UniProt Q9Y6A5); FAM label, pS558; sequence looked up) | CLTC 358-574 (Homo sapiens, UniProt Q00610) | fluorescence polarisation | peptide |  |  |  | 26 µM |
| NOTCH1 fragment (Homo sapiens) | RBPJ 25-449 (Homo sapiens, UniProt Q06330) | ITC |  |  |  |  | > 20 µM |
| B7 (PVRIG/Fc Fc fusion) | PVRL2 ECD 32-350 (Homo sapiens, UniProt Q92692) | BLI | Fc fusion |  |  |  | 0.216 µM |
| ENAH EVH1 domain (Homo sapiens) | ABI3 peptide (Homo sapiens) | BLI |  |  |  |  | 25.7 µM |

Excerpt of the above:
| Molecule | partner | method | form | cells | temperature | setting | Kd |
| --- | --- | --- | --- | --- | --- | --- | --- |
| B7 (PVRIG/Fc Fc fusion) | PVRL2 ECD 32-350 (Homo sapiens, UniProt Q92692) | BLI | Fc fusion |  |  |  | 0.216 µM |
| B5 | UBE2L3 (Homo sapiens, UniProt P68036) | MST |  |  |  |  | 322 ± 24 µM |
